Assay results of several laboratories.
Each numbered part is a random draw from the data of one study; scales do not carry over between parts.

Study 1 — method: protein binding microarray; molecule type: double-stranded DNA, one strand shown; medium: in vitro; tested at: not given; relative to: not given; reading: higher = stronger binding; measurement: E-score
Target: Histone acetyltransferase KAT6A, winged helix 1, GST fusion (KAT6A, Homo sapiens, UniProt Q92794, residues 1-85)
Setting: 8-mer, flanks averaged, mean of 2 arrays, mostly near background
Construct (chain): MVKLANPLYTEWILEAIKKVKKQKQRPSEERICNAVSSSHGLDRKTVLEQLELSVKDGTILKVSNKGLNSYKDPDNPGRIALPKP
AAGCGCGG: 0.398
CACGGTGC: 0.123
AGCTATTG: -0.145
TAGGTGCA: -0.214

Study 2 — method: RNA Bind-n-Seq; molecule type: RNA; medium: in vitro; tested at: 200 nM; setting: whole 134-nt RNA, ends assumed; with: 150 mM KCl; relative to: input library; reading: higher = stronger binding; measurement: log2 enrichment
Target: Fragile X messenger ribonucleoprotein 1, C-terminal low-complexity region (Fmr1, Mus musculus, UniProt P35922)
Shared flanks, not repeated: GGGAGUUCUACAGUCCGACGAUC … UGGAAUUCUCGGGUGUCAAGG
GUCCUGUGCUACACAUCGUAUGUACCGAAUCGGGGUGGGGAAAGGGGUUUUUUUGGGGAAAGUAUUAUGUUACGCCGUUCGGAUCUGCAC: 0.583
UGGCCCUGGUGGCAUGCGGGGACGAAGAGGUGGCCUCAUGGAUCGUGGUGGUCCCGGUGGAAUGUUCAGAGGUGGCCGUGGUGGAGACAG: -0.0732
UUAAUAGAUUGAACUUCAAAAAAAAAUUCUUUCUUAAUUUCUGGAUUAAAAAGUAUGCCUGUGUCUUCUAGACCUUUACCAGAAGAUGAU: -1.23
CCUGUGCUACACAUCGUAUGUACCGAAUCGGGUUUUUUUGGGUUUUUUUGGGUUUUUUUGGAAAGUAUUAUGUUACGCCGUUCGGAUCUG: -0.564
UCCUCAAGUCCUGUGCUACACAUCGUAUGUACCGAAUCGGGAGGGAGGAGGAAAGUAUUAUGUUACGCCGUUCGGAUCUGCACUUCCAGC: -0.31
CUCAAGUCCUGUGCUACACAUCGUAUGUACCGAAUCGGGUUGGGUUGGGUUGGAAAGUAUUAUGUUACGCCGUUCGGAUCUGCACUUCCA: 0.548
CACAGACAACACGCACCCACACAGACACAGAGGGAAGGGGUUGGGAUGGGGACAGGGUGCGCAGCAGGGCGGGGUAGGACCCCAGCCCCU: 1.23

Study 3 — method: universal PBM; molecule type: double-stranded DNA, one strand shown; medium: in vitro; tested at: not given; reading: higher = stronger binding; measurement: E-score
Target: Sal-like protein 4, full length isoform B (SALL4, Homo sapiens, UniProt Q9UJQ4-2, residues 1-616)
Setting: 8-mer, flanks averaged, mean of replicates
CCAGGAAA: 0.00157
GATTGAGA: 0.0966
GTGCCATA: 0.126
ATGCTTGC: -0.0289
CCCCCGGA: -0.264
GCGATCGA: -0.154
CACCGAAG: -0.16

Other studies, line by line
PhoQ, residues 284 288 289 292 302 303 SLSVQF  fold induction (PhoP, residues 12 14 15 18 19 QWHVF (Escherichia coli, UniProt P23836); Sort-seq, measured: YFP reporter; E. coli; PhoQ-PhoP variant library, with: 10 µM Mg2+; relative to: high Mg2+ state, higher = stronger signaling): 3.28

A few entries again (study 3):
CCCCCGGA: -0.264
